Measurements gathered from unrelated publications.
Every numbered part comes from another study and shows a few of its results, in no order.

Set 1
Target: RING finger protein unkempt homolog, zinc fingers 1-6, SBP tag (UNK, Homo sapiens, UniProt Q9C0B0, residues 30-357)
UniProt Q9C0B0, sequence (30-357, looked up): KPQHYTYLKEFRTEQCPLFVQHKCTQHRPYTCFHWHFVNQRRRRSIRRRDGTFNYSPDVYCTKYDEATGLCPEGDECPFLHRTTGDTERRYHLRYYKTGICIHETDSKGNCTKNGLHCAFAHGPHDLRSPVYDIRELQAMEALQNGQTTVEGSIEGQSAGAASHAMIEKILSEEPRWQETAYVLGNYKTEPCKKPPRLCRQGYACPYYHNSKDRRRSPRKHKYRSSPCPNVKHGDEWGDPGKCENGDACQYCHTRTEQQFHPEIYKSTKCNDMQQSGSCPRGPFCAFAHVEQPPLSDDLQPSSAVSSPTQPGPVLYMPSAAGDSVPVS
Technique: RNA Bind-n-Seq
Molecule type: RNA
Matrix: in vitro
Tested at: 100 nM
Setting: RNA with constant flanks, vertebrate orthologous sites, ends assumed
Relative to: input RNA pool
Reading: higher = stronger binding
Measurement: bound/input enrichment
All sequences stand within: GGGAGUUCUACAGUCCGACGAUC … CAACAGAGGAUUGAGCAUCA
AAUAGGUUUAAGCUUGUUUGCACAGUUUUUUUACUCCAUUGGAGAUGGAAUUCAUUGCCUUAGGUCUUUUUAAUAGUGUAUUGUUAUUGUUGGGCUGGCUCUAUGCUUGAAAACCAGUUU: 1.61 ratio
AAAUUUAUUUCAUGCCCUGGACUCCCUAUCGUACUGACACUUUAAUAGAAUAUGCUUCUUUGGAAGACUUUCAAAACAGUCGCCAAACAACAACAUAUAAACUACCAAACCGAGUAGAUG: 0.628 ratio
GUUGUGACCCAUUUAACAUACACAAAAAACUAGCCAAAAAAAAUUUGCAUGUGAUUGACUUAGAUGAUGCCACCUUCCUGAGUGCAAAAUUUGGAAGACAGCUUGUACCUGGUUGGAAGC: 1.52 ratio
GUUGUGAUCCCUUUAACAUCCACAGAAAGCUAUCAAAGAAAAACUUGCGAGCCAUUGACUUGGACGAUGCGGCUUUUCUGAGUGCCAAGUUUGGAAGGCAGUUUGUUCCUGGUUGGAAGC: 0.315 ratio
AGGAAAUGCUGGCUGCCAACCCUCAGGAUCGUCCAGAUGCUUUUGAACUAGAACUCAGAUUAGUACAAAUUGCAUUUAAAGAUAGCAGCUGGGAAACGUGACACAUAUUAUUUGCAAAUA: 0.988 ratio
CCAGAGGCACUUUCUCCUUCGGUCUUUCGUUAUAAGAAGAAAUGGACCCAUGCACAUUUAUAUAGCUUUCUAAUAGCAUUAAAACCAAUGCCUUUUUUAGACUCCUAUUUUUGAUGUAUA: 0.377 ratio
UCCAGUCUUACACUUAUGGUUGGCCUCAAAUCUAUUGCAUUUAUGAUAAUGUAUUAUAUCUAGUUGAGUUUAAUAUUUUUUAUUAGCCUGUAAAUAAAGAUGGCAUCUUCUACAUUAAAA: 0.514 ratio
AAGAUGGUGGUUGUACAUUACUUCAUUUAGAAAAUAUAAAAAUACAUUUUGUUUUGAAGCUAGGUGUUAAACUGGAGUAGCUAUAUUAUACCCCUAGAGAAUGGGGCAGUUGUGCCCUUC: 2.13 ratio
UGCCUACAAUAAUGAAAAACCUAAAGGAAUUUUUUAUUUUUAAUUUUCCCCUUAGGCAUAUUUAGACAUCUUUUUUCCAGGCAGAUCAUUCAGAGUGUGCGAGUGUGUGUGCACAUGUUA: 0.485 ratio
AUCUCUUAUUUUAUAUGUCCAAAAAAGGCUUUGAAUUUUUAAACAGUUGUUAGUUUUAAUUAGCUCUGCCCUCGUGAAGUAUUAUUAUAAUUCACCACAAACAGAUAUCUGUCUGAAUUA: 0.627 ratio
UCCCAGCACUCUGAUAAAAAGUGUGGACUGGUUGCUUGUAUUUUCCUUAUUCUUUUUAAUUAGCUUUAUUAUGUAUGCUACCAUUCGAACUGAGAGCAUUCGGUGGCUAAUUCCAGGACA: 0.999 ratio

Set 2
Target: Sal-like protein 4, full length isoform B (SALL4, Homo sapiens, UniProt Q9UJQ4-2, residues 1-616)
Technique: universal PBM
Molecule type: double-stranded DNA, one strand shown
Matrix: in vitro
Tested at: not given
Setting: 8-mer, flanks averaged, mean of replicates
Reading: higher = stronger binding
Measurement: E-score
CATATGCC: 0.2
TAGTAAAA: 0.318
ATGCCCCA: -0.249
CGTATATC: 0.0715
ACAAGTTC: -0.0638
AGCTTGTC: -0.0925
GGTTCGGA: -0.243
ACAGGGAT: -0.13
ATATCCAC: 0.174
AACGCACA: 0.092
ATAAAACA: 0.349
AACTCGCT: -0.017
ATCTTTAA: 0.225
CGCATCCC: -0.222
CCGATATC: -0.0166
CGATGCCA: -0.195
ATTTTAGA: 0.215
ATCGTACC: -0.151
CGTAACCA: 0.0574

Set 3
Target: Ras GTPase-activating protein-binding protein 1, full length (G3BP1, Homo sapiens, UniProt Q13283)
UniProt Q13283, sequence (whole entry, looked up): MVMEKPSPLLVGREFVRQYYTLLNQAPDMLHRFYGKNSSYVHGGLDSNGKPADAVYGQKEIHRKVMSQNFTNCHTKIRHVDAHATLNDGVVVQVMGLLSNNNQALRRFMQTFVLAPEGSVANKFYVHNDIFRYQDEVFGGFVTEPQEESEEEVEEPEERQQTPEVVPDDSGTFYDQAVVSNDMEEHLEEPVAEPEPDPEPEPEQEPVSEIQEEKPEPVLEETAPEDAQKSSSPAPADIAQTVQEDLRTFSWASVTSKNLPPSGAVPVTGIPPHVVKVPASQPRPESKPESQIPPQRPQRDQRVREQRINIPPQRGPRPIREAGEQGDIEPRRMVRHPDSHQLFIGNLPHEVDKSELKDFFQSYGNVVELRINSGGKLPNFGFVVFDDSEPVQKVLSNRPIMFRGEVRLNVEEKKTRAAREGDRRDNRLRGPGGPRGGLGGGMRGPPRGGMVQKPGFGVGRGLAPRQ
Technique: RNA Bind-n-Seq
Molecule type: RNA
Matrix: in vitro
Tested at: 200 nM
Setting: whole 134-nt RNA, ends assumed
Added: 150 mM LiCl
Relative to: input library
Reading: higher = stronger binding
Measurement: log2 enrichment
All molecules: 7-deaza-guanosine replaces G
All sequences stand within: GGGAGUUCUACAGUCCGACGAUC … UGGAAUUCUCGGGUGUCAAGG
AAGUCCUGUGCUACACAUCGUAUGUACCGAAUCGGAAAAAAAGGUGGAAAAAAAGGAAAGUAUUAUGUUACGCCGUUCGGAUCUGCACUU: -1.6
AGUCCUGUGCUACACAUCGUAUGUACCGAAUCGGGGAGGGGAAAGGGGUUUUUGGGGAAAGUAUUAUGUUACGCCGUUCGGAUCUGCACU: -0.106
ACCAUGCAGGUGGGCAUCUUUGGGAAGUGGGGCAAGGGGGGGAUAGGGAGGGGGGUAACUCUUUGGGAACAGGUGGUCCCAGGUCGUUUC: 0.29
GCAGGAAGUAAAAACAAAUGGAAAUGCUUCGGAUAGUGGCAGGGGUGGGGGUUGCUAAGGAAAGGGUGGGAUGGGAGUGGGUGAAGAGUU: -0.275
AGUCCUGUGCUACACAUCGUAUGUACCGAAUCGGGGUUUGGGGUUUUUGGGGAGGGGAAAGUAUUAUGUUACGCCGUUCGGAUCUGCACU: 0.455
CAAGUCCUGUGCUACACAUCGUAUGUACCGAAUCGGUUUUUUUGGAAAGGUUUGGAAAGUAUUAUGUUACGCCGUUCGGAUCUGCACUUC: -2.09
CCUCUGGACGAGACCAGCCAGAUGAGCGACCUCCCGGUGAAGGUGAUCCACGUGGAGAGUGGGAAGAUCCUCACAGGCACAGAUGCCCCC: 0.438
ACCAUGCAGGUGGGCAUCUUUGGGAAGUGGGGCAAGGGGGGGAUAGGGAGGGGGGUAACACUUUGGGAACUGGUGGUCCCAGGUCGUUUC: 0.359
CACAGACAACACGCACCCACACAGACACAGAGGGAAGGGGUUGGGAUGGGGAAAGGGUGCACAGCAGGGCGGGGUAGGACCCCAGCCCCU: 0.00159
CCUCAAGUCCUGUGCUACACAUCGUAUGUACCGAAUCGGAAAGGUGGUUUGGAAAGUAUUAUGUUACGCCGUUCGGAUCUGCACUUCCAG: -1.12
UAACUUUAGAGGAGGAUCUGAUGGAUCUGGCAGUGGACGUGGAUUUGGGGAUGGCUAUAAUGGGUAUGGAGGAGGACCUGGAGGUGGCAA: -0.146

Set 4
Target: Histone acetyltransferase KAT6A, winged helix 2, GST fusion (KAT6A, Homo sapiens, UniProt Q92794, residues 85-181)
Technique: protein binding microarray
Molecule type: double-stranded DNA, one strand shown
Matrix: in vitro
Tested at: not given
Setting: 8-mer, flanks averaged, mean of 2 arrays, mostly near background
Relative to: not given
Reading: higher = stronger binding
Measurement: E-score
Target sequence (chain): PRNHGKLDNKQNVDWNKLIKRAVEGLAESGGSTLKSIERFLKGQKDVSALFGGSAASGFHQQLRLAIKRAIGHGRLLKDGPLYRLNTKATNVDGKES
GGGTAACA: -0.123
CCCTTCAA: -0.0583
CTTATTAC: -0.0903
AACGTCAT: -0.241
CGCCGGGA: 0.179
GAGGTGTA: -0.273
ACCTTGCA: -0.00449
AGGCCGAT: 0.112
GGCCTGTA: -0.178
CGTGGTAA: 0.059
CACACGGA: 0.0801
AAAAAACC: -0.129
GGGGTAAA: 0.0184
ATTAGAGC: 0.0893
ATAATCAT: -0.0159
CAAGCATC: -0.0426
GAGACAAA: -0.0458
AGCTAACC: -0.204
CGAGCATA: 0.113
AGTAGCCA: -0.16
ATACTAGA: 0.156
CGCCCGCA: 0.294
AGTACCCC: -0.0934
GGCTGTAC: 0.0066

Set 5
Target: RNA binding protein fox-1 homolog 2, RRM domain, GST-SBP tag (RBFOX2, Homo sapiens, UniProt O43251-10, residues 100-194)
Technique: RNA Bind-n-Seq
Molecule type: RNA
Matrix: in vitro
Tested at: 365 nM
Setting: natural RNA segment, single round, ends assumed
Relative to: no-protein control
Reading: higher = stronger binding
Measurement: RBNS enrichment (R)
All sequences stand within: GGGAGUUCUACAGUCCGACGAUC … UGGAAUUCUCGGGUGCCAA
Target sequence (chain): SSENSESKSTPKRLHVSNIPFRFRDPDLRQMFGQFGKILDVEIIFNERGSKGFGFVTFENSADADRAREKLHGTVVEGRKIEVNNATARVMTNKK
GUGUGAGUGUGUGUGGGCGUGAGCGGGUGUGUACGUACCAAUAAACAUCCUGGUUUUAAGACAAUGUCAAAUGGUGUCAGUUUCUUCCUUCCUUCCUUCCUUCCUUCCUU: 1.17
CCUCAGGUAACUGUAAAUACCGACGUGGUAAACUUGCUUGAGUACUGUGUGUCUCCCUCAUGGAGUGCGAGGAUUUGAGCAUUUUCUGCUUCUUUAUGCUUUUUCAUUUA: 0.417
AAUUAACAAGAAAACAUAUGAACUCGCUUUAUACCUGAAGAGGUCUGUAACCAACCUUUAUCUGGCAUCAUAAUUGCAGCACAAUAAUGAUUUGCAUGAUAUCUUGAAAC: 7.44
AUCAGAGAAUUUGUUCACCACCGUCUCCAGGCAGCAACGCCAAGGGCAAGUCUGAUCUCAGCACCCACGAGCCACAUCCUGGGCCAAGCAACAGUAACCCUUGCCAAGCA: 0.542
GUGAAAUCGGUUUGAUUGAGUGGGCUCUGAAAGGGGCAUUUAAUGGUCUUGUUUCUUCAUAACUCACAAUCACUGGCUACCAAGAUAACCCUGAUGUAUUGAUUCCAUAA: 0.727
UGACUGCGUUCAUCAGUUUUACACUGGGGCUGCUACAUAAUAUUUUCAUUUGAACGAAGAACUUCAAAAAGCACAGGACUAGAUGAUCUCUGUUCCUUUUGGCUCUAAUA: 0.5
GACUUCCGUGCUGACUAAGCUGUGGCUCAGCAUUCCAUUGCACACUGGUGAAGUGAGUAGGGAUUGUUCCCAGGCAAGCAGCCGUACUCGUCAUGUUUUCUGCGGAAAAG: 0.305
UGAGUCACUCAUAAUUAAUUGCCAAAAAAGCAUUUUAUACAUUGAGUUGGGGGGUAGUGGAUCUUAGUGUGGUGUUGCAUGGAGGGGCGAGAUUUUAUAUUUAUAAUCAA: 8.51
UUUUAAUACAAAGUACAAGCUCUACUUUUAUAACGUGUACUACAAGUUUCUUUAAAAGUAUUGUUGUAUUUCAGCUGAACUCUUGUAUCUGCAGUCUUUUGUUAUUUCUG: 0.397
UACACCAAUUCUUUCUACUAAAUUGAGCUCUAUUUGAAGUUCUUUGGAAUCUGUGGUGAAAAAUAAUUUUCUGAUUUCCAAAUACAUUAAGAGCAUUAAAUGAAUAUUAA: 0.977
UUUAUGCUAGUGAACAAAGUAGCAAUAAAUGUUCAUUUUUGGAUGGCAGUACACAUUGUUAACAAUCGUGUAAUUAUAAUAAAUAUGUCUACCUACUCCUUGAACCAUGA: 0.331
GAGUCUUUUUUUUUUAAGUGAAAUUUAUUGAGGAAAAAUAUGUGAAGGACCUUCACUCUAAGAUGUUAUAUUUUUCUUAAAAAGUAACUCCUAGUAGGGGUACCACUGAA: 0.388

Repeated from above (set 4):
GAGACAAA: -0.0458
AGCTAACC: -0.204
CGAGCATA: 0.113
AGTAGCCA: -0.16
ATACTAGA: 0.156
CGCCCGCA: 0.294
